# Measured values collected from several papers.
# Lines come from different studies, so protocols differ. ± marks the error that the study gave.
Structure (SMILES),assay,system,conditions,how to read,endpoint,result
NC(=O)[C@H]1CCN(c2ncnc(N)c2F)C[C@@H]1N1CCC[C@@H](Nc2cc(Cl)cc(C(F)(F)F)c2)C1=O,,B-cell malignancy patients,"oral, 164 mg twice daily, dose",,grade ≥3 hypocalcaemia,25%
CO[C@H]1C[C@@H]2CC[C@@H](C)[C@@](O)(O2)C(=O)C(=O)N2CCCC[C@H]2C(=O)O[C@H]([C@H](C)C[C@@H]2CC[C@@H](OC(=O)NCCOCCOCCOCCOCCOCCOCCOCCOCCC(=O)N3CCc4cc(Cn5nc(-c6ccc7oc(N)nc7c6)c6c(N)ncnc65)ccc4C3)[C@H](OC)C2)C[C@@H](O)[C@H](C)/C=C(\C)[C@@H](O)[C@@H](OC)C(=O)[C@H](C)C[C@H](C)/C=C/C=C/C=C/1C,"phase 1 dose escalation, measured: gastric haemorrhage",advanced solid tumour patients,"intravenous, 8 mg weekly, grade ≥3",,dose-reducing adverse events,0%
CC(C)C[C@H](NC(=O)[C@H](CCCCN)NC(=O)OCC1c2ccccc2-c2ccccc21)C(=O)N[C@H](C(=O)N[C@@H](Cc1ccccc1)C(=O)N[C@@H](Cc1ccccc1)C(=O)N[C@@H](CCCCN)C(=O)NCC(=O)N[C@@H](Cc1ccccc1)C(=O)N[C@@H](C)C(=O)N[C@@H](Cc1c[nH]c2ccccc12)C(=O)N[C@@H](CC(N)=O)C(=O)N[C@H](C(=O)N[C@H]1CSSC[C@@H](C(=O)N[C@@H](Cc2c[nH]cn2)C(=O)N[C@@H](CCCNC(=N)N)C(=O)N[C@@H](CCCNC(=N)N)C(=O)N[C@@H](C)C(=O)N[C@@H](CC(N)=O)C(N)=O)NC(=O)[C@H](C(C)C)NC(=O)[C@H](CCCNC(=N)N)NC(=O)[C@H](C(C)C)NC(=O)CNC(=O)[C@H](CC(N)=O)NC(=O)[C@H](CCCNC(=N)N)NC(=O)[C@H](Cc2ccc(O)cc2)NC(=O)[C@H](C(C)C)NC1=O)C(C)C)C(C)C,,"ICR mouse, serum","ip, 10 mg/kg, 3 d dosing, blood day 5",,total protein,53.5 ± 2.12 g/L
COc1cc2c(Oc3ccc4[nH]c(C)cc4c3F)ccnc2cc1OCC1(N)CC1,,paediatric recurrent refractory sarcoma,"concentration not given, whole group",,grade 3 Epistaxis,0%
CN(C(=O)n1cnc(-c2ccc[n+]([O-])c2)c1)C1CCCCC1,,"Wistar rat, cerebellum","oral, 10 mg/kg/day, 48 h, repeated 5 days",,concentration,17.8 ± 0.8 ng/g
Cc1ncnc2c1ccn2[C@@H]1C[C@H](Oc2cc(C(F)F)c(F)c3c2CNCC3)[C@@H](O)[C@H]1O,,patients,"dose not given, grade ≥3",baseline: patients,Hypomagnesemia incidence,0%
O=[N+]([O-])c1ccc2c(c1)S(=O)(=O)C=C2,,"male C57BL/6 mice, blood","intraperitoneal, 10 mg/kg, day 8, group average",,haemoglobin,170 g/L
CCCCCCCCCCCCCCCC(=O)N[C@@H](CCC(=O)NCCCC[C@H](NC(=O)[C@H](CC(=O)O)NC(=O)[C@H](CO)NC(=O)[C@@H](NC(=O)[C@H](Cc1ccccc1)NC(=O)[C@@H](NC(=O)CNC(=O)[C@H](CCC(N)=O)NC(=O)[C@H](CO)NC(=O)[C@@H](N)Cc1c[nH]cn1)[C@@H](C)O)[C@@H](C)O)C(=O)N[C@@H](CO)C(=O)N[C@@H](CCC(=O)O)C(=O)N[C@@H](Cc1ccc(O)cc1)C(=O)N[C@@H](CC(C)C)C(=O)N[C@@H](CC(=O)O)C(=O)N[C@@H](CO)C(=O)N[C@@H](CCC(=O)O)C(=O)N[C@@H](CCCNC(=N)N)C(=O)N[C@@H](C)C(=O)N[C@@H](CCCNC(=N)N)C(=O)N[C@@H](CC(=O)O)C(=O)N[C@@H](Cc1ccccc1)C(=O)N[C@H](C(=O)N[C@@H](C)C(=O)N[C@@H](Cc1c[nH]c2ccccc12)C(=O)N[C@@H](CC(C)C)C(=O)N[C@@H](CCC(=O)O)C(=O)N[C@@H](C)C(=O)NCC(=O)NCC(=O)O)C(C)C)C(=O)O,measured: Tachycardia,humans CrCl at least 90 mL/min,"subcutaneous, 100 µg single dose",,treatment-related adverse events,0%
N=C(N)NCCC[C@@H](NC(=O)[C@@H](N)Cc1ccccc1)C(=O)N[C@@H](Cc1ccccc1)C(=O)N[C@@H](CCCCN)C(N)=O,,"early Huntington's disease patients, plasma","subcutaneous, 25 mg daily, day 7, median",,apparent volume of distribution,27.8 L
O=C(Nc1ccccc1)C1CCN(C(=O)Oc2cccnc2)CC1,measured: metabolism and nutrition disorders,healthy women,"oral, 20 mg, 7 days",,subjects with adverse event,0%
CC(C)=CC1C(C(=O)OC(C#N)c2cccc(Oc3ccccc3)c2)C1(C)C (stereo not shown),measured: CYP2C19,"human, age 5 years",,,enzyme contribution to clearance,0.9%
CN[C@@H](C)C(=O)N[C@H]1CN(S(=O)(=O)c2cccc(S(=O)(=O)N3CC[C@H]4CC[C@@H](C(=O)NC(c5ccccc5)c5ccccc5)N4C(=O)[C@@H](NC(=O)[C@H](C)NC)C3)c2)CC[C@H]2CC[C@@H](C(=O)NC(c3ccccc3)c3ccccc3)N2C1=O,,patients with advanced solid tumours,"4 mg, phase I monotherapy",,treatment-related ALT elevation incidence,0%
CCC[C@@](N)(CO)CCc1ccc(OCCCCCC(C)C)cc1,,"male hound dog, plasma","oral, 2.5 mg/kg, solution, geometric mean",,AUC(0-t),2.28 µM·h

# Excerpt of the above:
Structure (SMILES),assay,system,conditions,how to read,endpoint,result
Cc1ncnc2c1ccn2[C@@H]1C[C@H](Oc2cc(C(F)F)c(F)c3c2CNCC3)[C@@H](O)[C@H]1O,,patients,"dose not given, grade ≥3",baseline: patients,Hypomagnesemia incidence,0%
O=[N+]([O-])c1ccc2c(c1)S(=O)(=O)C=C2,,"male C57BL/6 mice, blood","intraperitoneal, 10 mg/kg, day 8, group average",,haemoglobin,170 g/L
